Measured values from different studies.
Compare with care: the assays were run in different laboratories. “And” joins repeats or separate records; there may be more than shown. Numbers after ± are the reported error.

For O=C(O)CCc1ccccc1, “host cell number” read 0.878 ± 0.023 (HCT-8 infected with Cryptosporidium parvum; Hoechst nuclei count; 1 mM, 24 h; relative to: PBS).
The apparent permeability of O=C(O)c1ccc(NS(=O)(=O)c2ccc(Cl)c(Cl)c2)cc1F is reported as 0.9 ×10⁻⁶ cm/s (RRCK cells; passive permeability).
Under “Papp A to B”, C[C@H]1O[C@@H](O[C@H]2[C@@H](O)C[C@H](O[C@H]3[C@@H](O)C[C@H](O[C@H]4CC[C@@]5(C)[C@H](CC[C@@H]6[C@@H]5C[C@@H](O)[C@]5(C)[C@@H](C7=CC(=O)OC7)CC[C@]65O)C4)O[C@@H]3C)O[C@@H]2C)C[C@H](O)[C@@H]1O is recorded as 0.59 ×10⁻⁶ cm/s (MDCK-MDR1 cells; 5 µM, pH 7.4).
For CCCC(CCC)NC(=O)c1ccc2c(c1)OCO2, “relative mitotic index” read 107% (CHO-WBL; 0.021 mg/mL, 3 h, with rat liver S9).
CC(C)C[C@H](NC(=O)[C@H](CCCNC(=N)N)NC(=O)CNC(=O)CNC(=O)[C@H](CCCNC(=N)N)NC(=O)CNC(=O)CNC(=O)CNC(=O)c1ccc2c(c1)C(=O)OC21c2ccc(O)cc2Oc2cc(O)ccc21)C(=O)N[C@@H](CO)C(=O)N[C@@H](Cc1ccc(O)cc1)C(=O)N[C@@H](CO)C(=O)N[C@@H](CCCNC(=N)N)C(=O)N[C@@H](CCCNC(=N)N)C(=O)N[C@@H](CCCNC(=N)N)C(=O)N[C@@H](Cc1ccccc1)C(=O)N[C@@H](CO)C(=O)N[C@H](C(=O)N[C@@H](CO)C(=O)N[C@H](C(=O)NCC(=O)N[C@@H](CCCNC(=N)N)C(N)=O)[C@@H](C)O)[C@@H](C)O gave a transport ratio of 3.8% (hCMEC/D3 monolayers; BBB permeability, Transwell, item: CF-labelled compound; EGM-2 medium; concentration not given, 1 h, apical to basal; relative to: fluorescence added apically).
The beat rate of O=C(O)CCCOc1ccc(F)cc1-c1cc(-c2ccccc2C(F)(F)F)n(-c2ccccc2)n1 is reported as 45.9 ± 1.5 min⁻¹ (human iPSC-derived cardiomyocytes; 20 µM).
For O=C(NCc1cc(O)c(O)c(Br)c1)c1nccs1, the CC50 was over 800 µM (Vero-E6; CCK-8; 24 h).
The apparent permeability of Cn1cc2c(C(=O)O)ccc(NS(=O)(=O)c3ccc(Cl)c(Cl)c3)c2n1 is reported as 5.3 ×10⁻⁶ cm/s (RRCK cells; passive permeability).
CCCCC(=O)O — result for “host cell number”: 0.863 ± 0.066 (HCT-8 infected with Cryptosporidium parvum; Hoechst nuclei count; 1 mM, 24 h; relative to: PBS).
With COc1ccc(Nc2cnnc3cc(-c4cnc(N5CCN(C)CC5)nc4)ccc23)cc1Cl the TC50 was over 10 µM (B10R mouse macrophages; cytotoxicity).
For CC1=CC[C@H]2[C@@H]([C@@H]1CC[C@H]1[C@]3(C)CC[C@H](O)C(C)(C)O[C@H]3CC[C@]1(C)O)C(C)(C)CC[C@]2(C)O, the IC50 was over 50 µM (KB-V1 (P-gp overexpressing); cell viability, MTT; DMEM with 10% bovine serum; 72 h).
Cc1ncc(CO)c(C(=O)O)c1O: “host cell number” 0.98 ± 0.082 (HCT-8 infected with Cryptosporidium parvum; Hoechst nuclei count; 1 mM, 24 h; relative to: PBS).
C[C@@H](c1ncncc1F)[C@](O)(Cn1cncn1)c1ccc(F)cc1F — result for “Papp A to B”: 31.6 ×10⁻⁶ cm/s and 28.8 ×10⁻⁶ cm/s (MDCK; 1 µM, 90 min, pH 7.4 apical, 7.4 basolateral).
For C=C1C(=O)O[C@@H]2[C@@H]3C4(C=C[C@@]3(C)C3(C4)C(=O)O[C@@H]4[C@H]5C(C)=CC(=O)C5=C(C)C[C@H](O)[C@H]43)[C@@](C)(OC(C)=O)CC[C@@H]12 (some centres unmarked), “maximum safe concentration” read 40 µM (AML12 mouse hepatocytes; MTT; 24 h, 10% FBS).
The viability of Cc1c(C)c2c(c(C)c1O)CCC(C)(COc1ccc(CC3SC(=O)NC3=O)cc1)O2 (centres unmarked) is reported as 47% (THLE-2, 3D culture; MTT; 100 µM, 72 h).
Under “host cell number”, Nc1nc2nc[nH]c2c(=O)[nH]1 is recorded as 1 ± 0.045 (HCT-8 infected with Cryptosporidium parvum; Hoechst nuclei count; 1 mM, 24 h; relative to: PBS).
With CCn1c(=O)c2c(nc(/C=C/c3ccc(OC)c(OC)c3)n2C)n(CC)c1=O the mass recovery was 91 ± 21% (MDCK; 1 µM, 90 min, pH 6.5 apical, 7.4 basolateral, apical to basolateral).
O=C(Nc1cc(F)c(F)c(F)c1)c1ccc(F)c(S(=O)(=O)N2CCC(O)CC2)c1 gave a CC50 of 8.12 ± 3.32 µM (HepAD38).
CCc1cc(/C(C)=N/OCc2ccc(C3CCCCC3)c(C(F)(F)F)c2)ccc1CN1CC(C(=O)O)C1: “Papp (A to B)” 14 ×10⁻⁶ cm/s (MDCK low-efflux).
Cc1ccc(Nc2cnnc3ccc(-c4ccc(N5CCN(C)CC5)cc4)cc23)cn1 has a TC50 of 3.9 µM (B10R mouse macrophages; cytotoxicity).
O=C(O)CCc1ccc(O)cc1: “host cell number” 0.873 ± 0.107 (HCT-8 infected with Cryptosporidium parvum; Hoechst nuclei count; 1 mM, 24 h; relative to: PBS).
COc1cccc(-c2n[nH]c(SCc3ccccn3)n2)c1OC has a cytostasis of -2% (CHO-WBL; micronucleus test; 100 µg/mL, 3 h, with: rat liver S9).
CC(=O)Nc1ccc(O)cc1 gave a mass recovery of 89 ± 9% (MDCK; 1 µM, 90 min, pH 6.5 apical, 7.4 basolateral, basolateral to apical).
For O=C(CS(=O)(=O)O)Nc1nc2ccc([N+](=O)[O-])cc2s1, the Papp was 0.011 ×10⁻⁶ cm/s (MDCK-MDR1; MDR1 inhibited).
CC(C)n1nccc1-c1ncccc1COc1cccc(O)c1C=O has a Papp of 20.1 ×10⁻⁶ cm/s and 24.4 ×10⁻⁶ cm/s (MDCK; permeability basolateral to apical; 1 µM, 90 min, pH 7.4 apical to 7.4 basolateral).
Under “host cell number”, CC(C)C(=O)O is recorded as 0.925 ± 0.113 (HCT-8 infected with Cryptosporidium parvum; Hoechst nuclei count; 1 mM, 24 h; relative to: PBS).
With CCCS(=O)(=O)Oc1ccc(C=NNC(=O)c2nc3ccccc3s2)cc1OC the cytotoxicity was 56.2% (BJ-1 fibroblasts; MTT; 100 µM, 48 h).
The TC50 of COC(=O)c1cccc(Cn2ccc3ccc(-c4ccc5ccn(Cc6cccc(C(=O)O)c6)c5c4)cc32)c1 is reported as 25.9 µM (MAGI-CCR5 cells; cytotoxicity; 48 h, 2% serum).
For CC(=O)Nc1cccc(-n2c(=O)n(C3CC3)c(=O)c3c(Nc4ccc(I)cc4F)n(C)c(=O)c(C)c32)c1, the viability fraction was 0.577 and 1 (LoVo (KRAS G13D); resazurin; 1.56 nM, 72 h; relative to: DMSO).
COc1cc(C=NNC(=O)c2nc3ccccc3s2)ccc1OS(C)(=O)=O has a cytotoxicity of 33.9% (BJ-1 fibroblasts; MTT; 100 µM, 48 h).
Cc1cc(C(=O)NC(C)(C)COc2cccc3c2C(N)=NS(=O)(=O)N3)cc(C)n1 has a cytotoxicity of -1% (human peripheral blood lymphocytes; CBPI, concurrent micronucleus test; 500 µg/mL, 4 h; relative to: vehicle control).
With COc1cc2ncnc(Nc3ccc(Oc4ccccc4)cc3C)c2cc1OC.O=C(O)C(F)(F)F the viability was 1 fraction of control (A-375 (BRAF V600E); 0.3 µM, 72 h).
With Cc1cnc(Nc2ccc(OCCN3CCCC3)cc2)nc1Nc1cccc(S(=O)(=O)NC(C)(C)C)c1 the mass recovery was 78 ± 2% (MDCK; 1 µM, 90 min, pH 6.5 apical, 7.4 basolateral, basolateral to apical).
For C/C=C(/C)C(=O)OC[C@H]1[C@@H](Cc2ccc(F)cc2)CO[C@@H]1c1ccc(F)cc1, the viability was 86 ± 12% (HEK293/NF-κB-luc; CellTracker Green CMFDA; 20 µM, 4.5 h, serum-free medium; relative to: stimulated untreated cells).
For CC(=O)Oc1ccccc1C(=O)O, the beat rate was 45.6 ± 1.8 min⁻¹ (human iPSC-derived cardiomyocytes; 1 µM).
Under “highest non-toxic concentration”, C[C@H]1[C@H](OC(=O)CCC(=O)O)O[C@@H]2O[C@@]3(C)CC[C@H]4[C@H](C)CC[C@@H]1[C@@]24OO3 is recorded as over 50 µM (human iPSC-derived cardiomyocytes; contraction velocity; 3 d).
The log IC50 of CCC(=CCc1c(O)cc2c(c1O)C(=O)C[C@@H](c1ccc(O)cc1)O2)CC is reported as 1.36 log µM (HeLa; cytotoxicity, MTT; 48 h, with: S9 fraction).
Under “host cell number”, CCCCC[C@H](O)/C=C/[C@H]1[C@H](O)CC(=O)[C@@H]1C/C=C\CCCC(=O)O is recorded as 1.02 ± 0.107 (HCT-8 infected with Cryptosporidium parvum; Hoechst nuclei count; 0.05 mM, 24 h; relative to: PBS).
With CCc1c(-c2ccccc2)c(-c2ccccc2)nn1-c1ccccc1-c1cccc(OCC(=O)O)c1 the viability was 90.9% and 83.8% and 88.7% and 93.7% and 85.2% and 86.3% (mouse bone marrow macrophages; CCK-8; 1 µM, 4000 cells; relative to: untreated).
For NCCCCC(=O)O, “host cell number” read 0.987 ± 0.056 (HCT-8 infected with Cryptosporidium parvum; Hoechst nuclei count; 1 mM, 24 h; relative to: PBS).
For Cc1noc(C)c1Cn1cc(N2C(=O)CN(Cc3cccc(O)c3)C2=O)cn1, “aberrant cells with gaps” read 1.5% (human blood lymphocytes; 494.3 µg/mL, 3 h).

A few entries again:
Under “host cell number”, CC(C)C(=O)O is recorded as 0.925 ± 0.113 (HCT-8 infected with Cryptosporidium parvum; Hoechst nuclei count; 1 mM, 24 h; relative to: PBS).
With CCCS(=O)(=O)Oc1ccc(C=NNC(=O)c2nc3ccccc3s2)cc1OC the cytotoxicity was 56.2% (BJ-1 fibroblasts; MTT; 100 µM, 48 h).
The TC50 of COC(=O)c1cccc(Cn2ccc3ccc(-c4ccc5ccn(Cc6cccc(C(=O)O)c6)c5c4)cc32)c1 is reported as 25.9 µM (MAGI-CCR5 cells; cytotoxicity; 48 h, 2% serum).
For CC(=O)Nc1cccc(-n2c(=O)n(C3CC3)c(=O)c3c(Nc4ccc(I)cc4F)n(C)c(=O)c(C)c32)c1, the viability fraction was 0.577 and 1 (LoVo (KRAS G13D); resazurin; 1.56 nM, 72 h; relative to: DMSO).
